Published values collected from several papers.
Parts stem from different laboratories: compare values within a part only.

Sample 1
Target: Histone acetyltransferase KAT6A, winged helix 2, GST fusion (KAT6A, Homo sapiens, UniProt Q92794, residues 85-181)
Method: protein binding microarray
Molecule type: double-stranded DNA, one strand shown
Matrix: in vitro
Concentration: not given
Notes: 8-mer, flanks averaged, mean of 2 arrays, mostly near background
Baseline: not given
Direction: higher = stronger binding
Measurement: E-score
Target sequence (chain): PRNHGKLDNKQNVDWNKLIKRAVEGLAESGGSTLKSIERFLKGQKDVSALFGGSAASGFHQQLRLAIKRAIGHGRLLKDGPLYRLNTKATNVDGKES
Strand = CCCCGAGG; value = 0.151
Strand = CGATTCCC; value = -0.0181
Strand = CGCTGAAA; value = -0.113
Strand = ACGTCCAT; value = -0.165
Strand = CTCAGTGC; value = 0.0731
Strand = CGTCCCGA; value = -0.0295
Strand = TATACATA; value = -0.136
Strand = CACTTTTA; value = 0.0758
Strand = CCAGCGAC; value = 0.0318
Strand = ACGTGGCA; value = -0.168
Strand = CTCCCAGA; value = -0.0823
Strand = GGGGAGAC; value = 0.0538
Strand = CATCTTGA; value = -0.038
Strand = AATCGTCA; value = -0.032
Strand = ACCACTTG; value = -0.0246
Strand = ACTCGGAT; value = 0.0568
Strand = ACGCGTAC; value = -0.0406
Strand = TCCTGAGA; value = 0.0548
Strand = CAAACAAG; value = 0.0323
Strand = AATTGCCC; value = -0.00347
Strand = GCCGCTCC; value = 0.0758
Strand = ATCAAGGG; value = 0.0377
Strand = ATGTTCTC; value = 0.0669
Strand = ATATACGA; value = -0.0434
Strand = AGCTATTG; value = -0.0177

Sample 2
Target: PABPC1L2, full length, GST fusion (mouse, UniProt A0ABA7IW68)
Method: RNAcompete
Molecule type: RNA
Matrix: in vitro
Concentration: 20 nM
Notes: 7-mer, probes averaged, single round
Baseline: mean of 7-mers
Direction: higher = stronger binding
Measurement: 7-mer Z-score
Residues (chain): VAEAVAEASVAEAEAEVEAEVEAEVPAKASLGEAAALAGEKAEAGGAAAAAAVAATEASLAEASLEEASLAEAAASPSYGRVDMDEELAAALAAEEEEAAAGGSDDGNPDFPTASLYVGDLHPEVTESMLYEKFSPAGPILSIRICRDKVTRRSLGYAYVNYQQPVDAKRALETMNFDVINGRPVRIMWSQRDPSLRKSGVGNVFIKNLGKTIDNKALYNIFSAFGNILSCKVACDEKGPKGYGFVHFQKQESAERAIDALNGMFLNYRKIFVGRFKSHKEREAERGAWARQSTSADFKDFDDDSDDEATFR
Strand = UUCGCCC; value = -0.373
Strand = UCCUGUG; value = -0.38
Strand = GGGUUGC; value = -0.00108
Strand = UUACUAA; value = 0.142
Strand = CUUUUGA; value = -0.0337
Strand = UAUUCUU; value = -0.362
Strand = UGUCCUA; value = -0.213
Strand = GCGCAGU; value = -0.295
Strand = GUUGCCU; value = -0.367
Strand = CCGUGGC; value = 0.00617
Strand = CGACUCA; value = -0.104
Strand = UUGUGCA; value = -0.307
Strand = ACGCAGU; value = -0.0863
Strand = CACGCCA; value = -0.26
Strand = UCGCUAC; value = -0.409
Strand = UAAAUAC; value = 1.62
Strand = ACCACCU; value = -0.215
Strand = CCUCGUA; value = -0.354

Sample 3
Target: Ras GTPase-activating protein-binding protein 1, full length (G3BP1, Homo sapiens, UniProt Q13283)
Sequence of UniProt Q13283 (whole entry, looked up): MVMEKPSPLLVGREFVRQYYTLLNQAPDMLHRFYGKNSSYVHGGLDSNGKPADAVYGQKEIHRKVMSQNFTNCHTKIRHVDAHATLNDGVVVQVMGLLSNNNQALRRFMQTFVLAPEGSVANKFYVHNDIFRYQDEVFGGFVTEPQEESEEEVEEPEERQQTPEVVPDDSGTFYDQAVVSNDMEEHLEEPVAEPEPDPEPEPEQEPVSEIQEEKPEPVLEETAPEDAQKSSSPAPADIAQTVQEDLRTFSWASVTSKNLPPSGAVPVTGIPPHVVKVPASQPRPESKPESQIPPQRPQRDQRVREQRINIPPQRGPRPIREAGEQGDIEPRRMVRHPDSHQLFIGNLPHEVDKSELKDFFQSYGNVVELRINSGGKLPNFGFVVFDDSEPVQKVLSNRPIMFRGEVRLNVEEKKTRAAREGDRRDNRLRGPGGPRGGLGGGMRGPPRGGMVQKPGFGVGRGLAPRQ
Method: RNA Bind-n-Seq
Molecule type: RNA
Matrix: in vitro
Concentration: 200 nM
Notes: whole 134-nt RNA, ends assumed
Added: 150 mM LiCl
Baseline: input library
Direction: higher = stronger binding
Measurement: log2 enrichment
Each molecule: 7-deaza-guanosine replaces G
All sequences stand within: GGGAGUUCUACAGUCCGACGAUC … UGGAAUUCUCGGGUGUCAAGG
Strand = UUUGCUGUUGUUAACCAUCAAGGGACCUUGGAGAGUGGCCACUACACCAGCUUUAUCCGGCAGCACAAAGACCAGUGGUUCAAGUGUGAC; value = -1.34
Strand = UGGCCCUGGUGGCAUGCGGGGAGGAAGAGGUGGCCUCAUGGAUCGUGGUGGUCCCGGUGGAAUGUUCAGAUGUGGCCGUGGUGGAGACAG; value = -0.0517
Strand = CUCAAGUCCUGUGCUACACAUCGUAUGUACCGAAUCGGGGCGGGCGGGGCGGGAAAGUAUUAUGUUACGCCGUUCGGAUCUGCACUUCCA; value = -0.131
Strand = UAACUUUAGCGGAGGAUCUGAUGGAUAUGGCAGUGGACGUGGAUUUGGGGAUGGCUAUAAUGGGUAUGGAGGAGGACCUGGAGGUGGCAA; value = -0.0911
Strand = GUCCUGUGCUACACAUCGUAUGUACCGAAUCGGGGUUUGGGGAAAAAGGGGUUUGGGGAAAGUAUUAUGUUACGCCGUUCGGAUCUGCAC; value = -0.722
Strand = UGGCCCUGGUGGCAUGCGGGGAGGAAGAGGUGGCCUCAUGGAUCGUGGUGGUCCCGGUGGCAUGUUCAGAGGUGGCCGUGGUGGAGACAG; value = 0.273
Strand = CCUCAAGUCCUGUGCUACACAUCGUAUGUACCGAAUCGGCGGGGCGGCGGGGAAAGUAUUAUGUUACGCCGUUCGGAUCUGCACUUCCAG; value = 0.142
Strand = UUAUCACCAGGACUGCCAUGUUCCCAGGGCUCCAGCCCCUGGAGAGGGAGAGGGCACAUCCUGGGUAUGCCGCCAGUGUGUCUUUGCGAU; value = -0.958
Strand = UCAAGUCCUGUGCUACACAUCGUAUGUACCGAAUCGGAGGAAAAAAAGGUUUGGAAAGUAUUAUGUUACGCCGUUCGGAUCUGCACUUCC; value = -1.12
Strand = UGGCCCUGGUGGCAUGCGGGGAGGAAGAGGUGGCCUCAUGGAUCGUGGUGGUCGCGGUGGAAUGUUCAGAGGUGGCCGUGGUGGAGACAG; value = 0.185
Strand = AGUCCUGUGCUACACAUCGUAUGUACCGAAUCGGUUUUUGGUUUUUGGGGUUUUUGGGAAAGUAUUAUGUUACGCCGUUCGGAUCUGCAC; value = -0.177

Sample 4
Target: RING finger protein unkempt homolog, zinc fingers 1-6, GST-SBP tag (UNK, Homo sapiens, UniProt Q9C0B0, residues 30-357)
Sequence of UniProt Q9C0B0 (30-357, looked up): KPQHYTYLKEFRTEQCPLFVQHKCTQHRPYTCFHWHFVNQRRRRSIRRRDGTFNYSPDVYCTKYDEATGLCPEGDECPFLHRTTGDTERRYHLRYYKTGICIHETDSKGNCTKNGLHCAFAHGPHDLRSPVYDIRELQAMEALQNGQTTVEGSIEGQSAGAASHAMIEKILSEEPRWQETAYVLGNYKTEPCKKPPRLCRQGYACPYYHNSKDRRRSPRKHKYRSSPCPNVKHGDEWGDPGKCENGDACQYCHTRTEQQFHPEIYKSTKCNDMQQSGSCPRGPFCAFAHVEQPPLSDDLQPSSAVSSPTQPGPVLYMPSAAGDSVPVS
Method: RNA Bind-n-Seq
Molecule type: RNA
Matrix: in vitro
Concentration: not given
Notes: RNA with constant flanks, ends assumed
Baseline: input RNA pool
Direction: higher = stronger binding
Measurement: bound/input enrichment
All sequences stand within: GGGAGUUCUACAGUCCGACGAUC … CAACAGAGGAUUGAGCAUCA
Strand = GUUAGCUGGGGUAAAAAGGUCCAGCCUAUAGACUCCAUAUUAGCAGACUGGAAUGAAGAUACCGAAGCAUUUGAAAUGAUGGAGAAGGAUGAGCUAUGACUUGCUAAACAAUCUGUUGGU; value = 0.54 ratio
Strand = UAAUGUAAACUUUCCAGUGGAUUGUUACUUACACACCUGAUACUAAGAAUUAAGUAGAAGACCGAUUUUUAUGGACACUCUAGCUGUAUUGGAGCACUACUGGAUUUUAUAUUUCAGUCA; value = 0.26 ratio
Strand = CUACUUUAGAGGAUUUCAGCCUUGAUGUUUUAAUAUCCUAGGCCUCUGCUGUAAUAAGAUUUCCGACAAAUGUUUGGAAUUUAAGAAGCAACUCAUGUUACUAAUUUGUAUAGCCCAUAU; value = 1.03 ratio
Strand = AAAUAUGACUCAAGUGUGAGUGGUCAAUCAUCUUUUGUGACAUCCCCAGCAGCAGACAACACCGAAAUGCUUCCUCAUUAUGAGCCAAUUCCAUUCAGUUCUUCUAUGAAUGAAUCUGCU; value = 0.125 ratio
Strand = AGUAAGACCAUGAAUUAUGGCAUUUCUUAAAUGAAGCGUUCAAGAAGUGAGAGAAUGUCACCGAAAAUAAAUGAUUUUUAAGUUAUGUCUAUUAAUCUGACUGUAGAUAUAUAUAUUUAC; value = 0.483 ratio
Strand = AAGCUAUAAUGAGUUUUUCUAAAUUAAGGGAACUCUGCUACUUCCUUUUUUUUUUUUUUUAACCGUUGGUCUACAAGUGCGCAUUGGUAGGGUGUCCAGCAGAUGGAUGGGGGCUGAUGG; value = 1.18 ratio
Strand = UUUCAGUGAAGUGGAGUUACUCCAAGUGAAACGCUGUUUUCUGGUUUUAGCCAAACUGCAAUCCGAUGUGUCUUUGCAAUCUAAAAGUUGUACACAAUCAACAAUACACUUUGCUUACUC; value = 0.0784 ratio
Strand = AACAGGACAGCCUGGUGCCCCAUUACACUCUGUAGGAGUUAUGCAAUUCAGAAGUGGAAUUCCGGAAAUCAUUUAUUUUGAUGUGUCAAUAGAGAGAUUUAUUGUCUGUAAAUUUGGAUG; value = 0.266 ratio
Strand = GCAACAAGUGAAGAAGAAGCUAAAUUUGGUGCCAGACGUUUAGCCCGUAGUCUGCAGAAACCCGGUUUUCAGGUCAUCUUCACAGAUUUUAAGGUGGUGAAUGUUUUGGCAGUGUGUAAC; value = 0.267 ratio
Strand = GAAGGGCUAUCUUUCUAUUCACAUCAAACCUUUUGUUGCGUGUUUCUGUUUUUUAAUACUUCCGGGUUCUGAUUUGUGGGAACAGACCUUGUAAAUAACCACUGUUCACAUGUGUGGCAG; value = 0.479 ratio
Strand = UAAUUUUGGCAGGAGUUAGAAUAAAUCCUUGGAGCCUGGGCCCCUCUGUCCUUGGCCCUCCACCGCCUUCUCGCUAGAGGGGGAAAGAAGGUUCUCGGGCCGGCCCCACUACCAAGCAUA; value = 0.216 ratio

Sample 5
Target: Hepatocyte nuclear factor 3-alpha (Foxa1, Mus musculus, UniProt P35582, residues 1-468, full length assumed)
Sequence of UniProt P35582 (whole entry, looked up): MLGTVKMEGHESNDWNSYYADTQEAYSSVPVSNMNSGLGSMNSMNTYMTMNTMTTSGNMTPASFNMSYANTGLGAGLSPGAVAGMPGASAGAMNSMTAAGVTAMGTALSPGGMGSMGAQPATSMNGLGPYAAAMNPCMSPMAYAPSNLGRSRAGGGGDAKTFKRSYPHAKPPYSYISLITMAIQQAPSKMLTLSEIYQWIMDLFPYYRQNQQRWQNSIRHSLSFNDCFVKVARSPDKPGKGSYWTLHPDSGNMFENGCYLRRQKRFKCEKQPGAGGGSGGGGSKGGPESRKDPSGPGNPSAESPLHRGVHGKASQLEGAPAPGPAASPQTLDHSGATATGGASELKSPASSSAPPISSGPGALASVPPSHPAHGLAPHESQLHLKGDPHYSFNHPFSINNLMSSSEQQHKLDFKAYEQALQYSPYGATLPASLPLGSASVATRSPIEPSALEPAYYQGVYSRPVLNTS
Method: EMSA with sequencing
Molecule type: double-stranded DNA, one strand shown
Matrix: in vitro
Concentration: 10 and 20 nM
Notes: whole designed probe, mean of two concentrations, ends assumed
Baseline: negative control set to 0
Direction: higher = stronger binding
Measurement: normalised bound fraction
All sequences stand within: GTGAGCGGTGCCCATTGATGGGGAAC … TTTCACTGGGATCGTGGGGAC
Strand = CTAAATAGATACTTCTGGCTTAATCATGTAGAATCCTTTTGACTATACATAACAGAAAACCAAGCTAACCATTAGCATTAACTAAAAGGATGCTTGTTTACTTAATATTACTTCCAAAGTGGTCCCTGTGATGGTTTGGCCTTGAAATTGAATCATCAAGGACCGACTCTCTTTTCAAAATCTTTGGTTGGTA; value = 0.423 ratio
Strand = TCTACACTCTGCTGCAGCTGACAATAGGCAGCATCAGCAGCTGAAAGATGAGAGTTTGGTAATATATTTTTCATTTCCTTTCACTTGCTCCTTGTTTACTTTCTTGTCAAAGCAAACCTAGCTCACCCCTGGGGCATGTCATTTTATCAAAAAAGAAATTATGGGTTATCCCCTTTCACAGTTTTCAAAGCTA; value = 0.343 ratio
Strand = ACATGCTTTCTTTCCTTTTTTTTTTTCTTTTTGACCTGTGTGTTTTTTACTCTATGTAATTTTGGACAGCTGAATCATTACCTTTCTTATTCAAGATTACAGAGAGTTTATTTATTTGGAACAAAGAGAAAGTTTAAAAATTTGGAAGTTCTCCAAACATTTTCAGTTAAGCAGCATACCATATACAGTGATT; value = 0.122 ratio
Strand = ATCTTCCCCCTCTTCCTTGCCCCACCAGCTCACCTTCCCGGGTATATTGGAGATAGGAAATTAATATAAGCCGGCATTCGTTAACCCTCTTCTGGCGCAAACTGCCAGAGCAAACAGATCTAACATGGTCCTTTGGCGACGCCAGGCTCCGGGAGAGCAAAGCACCGTGTCAGGGCCATGATCCGGGGTGGCC; value = 0.163 ratio
Strand = GTAAAGCCAGTTACTTTTGTTATGTTTATGAATTCCTAGGCCTCTTGACAAACACTGAGGTTCTCAAACATTGGCAAACACAAGTCACATTAGGTAAACATACAAATTCTTGGCCTTAGTTCCATATATTTTATTCTGAACAAATAGCCCTTAAGTCAAAATTGAGAAACAATGATTAGTAATAAGTTTTTAC; value = 0.409 ratio
Strand = AACGGGACTCTGGCTGGGCCAGGGCTCCTCGCCCAGGATGCCCGGGGAGAGGCCCCGTGTGAGGGCCTCACTCTGTGGGCTTAGGAATCCCAGAGTAAACAGATCAAGTTACCCGTGTCAGCCGGGCCGTCCACAACAGGCAGCCGCAGCGATTGAAGATGGGAATGTTCTTCTCAGAGATGACTCAGCTACT; value = 0.289 ratio
Strand = TATTGGCTGCTTTTCAGTAACTTGGAAGCCTTAGGAGACATTCAGAGTTTGGCATCAAGTTGCATTAATCATATTAAACTTTAAAATCCGTGCTTGTTTACTCAGCAATGCATTTTAGTCATGTCGGTGTATCTTTAACACTGCTTCAAGCAACAATACAAGAACCCAACCTCTGGTCTTGCTGCTTTATTAA; value = 0.394 ratio
Strand = CTACATAAAATATCACTTATCAAAGTCTGTTTATGACCTCTTTTAAATCCAGAAATCATACTGCTGTCAATTCATTTTTAGCAGCAATCCTAAGTCATCTTGAGTCTATGTATCTTGAGTAATCCTTGGCAGGGTGCAGAGCAGTAAATCATATTTTATTACTCAAGATGGCAGAAGCTAGAGCTATCTGAAA; value = -0.00367 ratio

Some of these lines once more (sample 1):
Strand = CATCTTGA; value = -0.038
Strand = AATCGTCA; value = -0.032
Strand = ACCACTTG; value = -0.0246
Strand = ACTCGGAT; value = 0.0568
Strand = ACGCGTAC; value = -0.0406
Strand = TCCTGAGA; value = 0.0548
Strand = CAAACAAG; value = 0.0323
